Measurements pooled from the literature.
Numbered parts are unrelated; each lists some results of a single study.

Set 1 — method: RNA Bind-n-Seq; form: RNA; matrix: in vitro; tested at: 200 nM; notes: whole 134-nt RNA, ends assumed; with: 150 mM LiCl; relative to: input library; reading: higher = stronger binding; library: 7-deaza-guanosine replaces G
Target: Fragile X messenger ribonucleoprotein 1, C-terminal low-complexity region (Fmr1, Mus musculus, UniProt P35922)
Constant ends, left off below: GGGAGUUCUACAGUCCGACGAUC … UGGAAUUCUCGGGUGUCAAGG
`AGUCCUGUGCUACACAUCGUAUGUACCGAAUCGGAAAAAGGAAAAAGGAAAAAGGGGAAAGUAUUAUGUUACGCCGUUCGGAUCUGCACU` has a log2 enrichment of -1.54.
`UCAAGUCCUGUGCUACACAUCGUAUGUACCGAAUCGGGAGGGAAAGGGUUUGGGAAAGUAUUAUGUUACGCCGUUCGGAUCUGCACUUCC` has a log2 enrichment of -1.45.
`GUCCUGUGCUACACAUCGUAUGUACCGAAUCAAAUUUUUAAAUUUAAAUUUUUUUAAAAAAGUAUUAUGUUACGCCGUUCGGAUCUGCAC` gave a log2 enrichment of -2.88.
With `GUCCUGUGCUACACAUCGUAUGUACCGAAUCGGGGUGGGGAAAAAGGGGUUUUUGGGGAAAGUAUUAUGUUACGCCGUUCGGAUCUGCAC` the log2 enrichment was 0.0832.
The log2 enrichment of `UAGUCACCUACUGCCACCUUCGAAAAACACGGAGAGCACCUACCCAGAGGAGAAGGUAGAUUUGGAGUAAGCCGCCGUCGACAUAAUUCC` is reported as 0.538.
For `UCCUCAAGUCCUGUGCUACACAUCGUAUGUACCGAAUCGGCGGCGGGGCGGAAAGUAUUAUGUUACGCCGUUCGGAUCUGCACUUCCAGC`, the log2 enrichment was 0.663.
With `CUGUGCUACACAUCGUAUGUACCGAAUCGGGGUUUUUGGGGAAAAAGGGGAAAAAAAGGGGAAAGUAUUAUGUUACGCCGUUCGGAUCUG` the log2 enrichment was -0.324.
The log2 enrichment of `CCUGUGCUACACAUCGUAUGUACCGAAUCGGGCCCCCCCGGGCCCCCCCGGGCCCCCCCGGAAAGUAUUAUGUUACGCCGUUCGGAUCUG` is reported as 0.139.

Set 2 — method: protein-binding microarray; form: double-stranded DNA, one strand shown; matrix: in vitro; tested at: 2200 nM top; notes: 60-bp whole probe; with: salmon DNA 0.4 mg/ml; relative to: random background probes; reading: higher = stronger binding; constant ends, left off below: GCCTAGCAC … GTCTTGATTCGCTTGACGCTGCTG
Target: Interferon regulatory factor 7, full length, phosphomimetic (IRF7, Homo sapiens, UniProt Q92985, residues 1-503, S471D/S472D/S475D/S476D/S477D/S483D/S484D/S487D)
Chain of UniProt Q92985 (whole entry, unmodified, looked up): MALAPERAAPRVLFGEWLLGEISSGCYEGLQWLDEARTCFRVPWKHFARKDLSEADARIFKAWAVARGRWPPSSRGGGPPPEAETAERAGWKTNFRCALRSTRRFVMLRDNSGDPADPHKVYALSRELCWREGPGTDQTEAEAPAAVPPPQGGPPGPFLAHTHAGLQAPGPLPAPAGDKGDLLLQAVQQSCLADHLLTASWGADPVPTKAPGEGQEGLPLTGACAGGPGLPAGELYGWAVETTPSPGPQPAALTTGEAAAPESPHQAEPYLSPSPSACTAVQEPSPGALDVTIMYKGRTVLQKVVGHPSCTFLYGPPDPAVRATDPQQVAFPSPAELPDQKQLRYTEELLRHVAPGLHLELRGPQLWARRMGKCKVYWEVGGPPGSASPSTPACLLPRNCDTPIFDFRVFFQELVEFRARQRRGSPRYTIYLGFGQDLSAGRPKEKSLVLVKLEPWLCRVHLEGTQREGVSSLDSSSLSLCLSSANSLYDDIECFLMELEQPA
`TCAGATTTCTTCCCTGTGACTGTGCTA` — result for “fitted relative affinity”: 1.37 z-score.
Under “fitted relative affinity”, `GACGGTTTCCTTTTCCTGTCGTGCTAG` is recorded as 6.56 z-score.
`TCATTTTTTTACTTCGGACTGTGCTAG`: “fitted relative affinity” 1.53 z-score.
`TTAGGTCTCCTTCTCATTTAGTGCTAG` — result for “fitted relative affinity”: 0.778 z-score.
`TCAGAAATTCCTCTGAGACTGTGCTAG`: “fitted relative affinity” -0.212 z-score.
For `TCAGTTCCTTATTTAAGACTGTGCTAG`, “fitted relative affinity” read 1.68 z-score.
`GACGTTATCCTTATCCTGACGTGCTAG` — result for “fitted relative affinity”: 1.44 z-score.
`TTAGGACTGGACTTTCGGATAGTGCTA` — result for “fitted relative affinity”: 1.49 z-score.
`TTAGACTTCAGTATCGATTAGTGCTAG`: “fitted relative affinity” 0.214 z-score.
For `TTAGTTATCCTTATCCTTTAGTGCTAG`, “fitted relative affinity” read 1.42 z-score.
`GGGCACATCTTAACATATGAGTGCTAG` — result for “fitted relative affinity”: -0.107 z-score.
For `TCACCATTTTTTTTCACACTGTGCTAG`, “fitted relative affinity” read 2.02 z-score.
`TCATGTTGTTTTTTGGTACTGTGCTAG`: “fitted relative affinity” 2.11 z-score.
For `TTTGGACTGGACTTTCGGTTAGTGCTA`, “fitted relative affinity” read 5.41 z-score.
`ATAGGTTTCCTTCTCCTTTAGTGCTAG`: “fitted relative affinity” 2.59 z-score.
Under “fitted relative affinity”, `TTAGGACTGGACACGGGGTTAGTGCTA` is recorded as -0.776 z-score.
Under “fitted relative affinity”, `GTCGATATCGGGACTGGAGACGTGCTA` is recorded as 0.203 z-score.
`CCCTGTTTCTACTGTCTGTTTGTGCTA`: “fitted relative affinity” 2.85 z-score.
`TCATTTTTTTGTATTTTACTGTGCTAG` — result for “fitted relative affinity”: 1.87 z-score.

Set 3 — method: protein binding microarray; form: double-stranded DNA, one strand shown; matrix: in vitro; tested at: not given; relative to: not given; reading: higher = stronger binding
Target: Histone acetyltransferase KAT6A, winged helix 2, GST fusion (KAT6A, Homo sapiens, UniProt Q92794, residues 85-181)
Notes: 8-mer, flanks averaged, mean of 2 arrays, mostly near background
Target sequence (chain): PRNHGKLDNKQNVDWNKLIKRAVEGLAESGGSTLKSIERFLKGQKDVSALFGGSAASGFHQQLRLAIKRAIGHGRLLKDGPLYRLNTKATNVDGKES
`ATCGACGA` has an E-score of 0.151.
The E-score of `AATGATGG` is reported as -0.197.
For `TTAGACAA`, the E-score was 0.0233.
`ATGGCGGG` has an E-score of 0.164.
The E-score of `ACGCCCGT` is reported as -0.134.
With `GCGTGTAC` the E-score was -0.00466.
For `ATCTAGTA`, the E-score was 0.103.
For `AATAGGGA`, the E-score was -0.0593.
The E-score of `AGAGCACT` is reported as 0.0603.
The E-score of `ACTAATCA` is reported as 0.0548.
`AACCACCT` gave an E-score of -0.0246.
`AAGTTGAG` has an E-score of -0.109.
For `CAAAGGTA`, the E-score was -0.063.
For `GGCTCGGA`, the E-score was -0.087.
`CAAGGAAC` gave an E-score of 0.134.

Set 4 — method: aptamer microarray, sandwich; form: DNA with 2'F-ANA; matrix: in vitro; tested at: 200 nM; with: Cy3 exosite-II aptamer, 400 nM; reading: higher = stronger binding; sequence: GGTTGGTGTGGTTGG
Target: Prothrombin, mature alpha-thrombin (F2, Homo sapiens, UniProt P00734)
Notes: whole 15-mer aptamer, many near background
For `2'F-ANA at 1 2 3 4 6 7 9 11 12 14 15`, “mean fluorescence intensity” read 63.2 a.u.
For `2'F-ANA at 2 4 6 7 13 14`, “mean fluorescence intensity” read 86.5 a.u.
Under “mean fluorescence intensity”, `2'F-ANA at 1 4 5 6 7 9 10 11` is recorded as 46.4 a.u.
Under “mean fluorescence intensity”, `2'F-ANA at 2 3 4 8 9 10 14 15` is recorded as 173 a.u.
`2'F-ANA at 5 9 10 13 14`: “mean fluorescence intensity” 44.5 a.u.
`2'F-ANA at 1 2 5 6 8 9 12 14` — result for “mean fluorescence intensity”: 103 a.u.
Under “mean fluorescence intensity”, `2'F-ANA at 2 5 6 9 10 15` is recorded as 62 a.u.
For `2'F-ANA at 1 3 5 6 10 11 12 13 14`, “mean fluorescence intensity” read 75.5 a.u.
`2'F-ANA at 2 3 4 10 12`: “mean fluorescence intensity” 303 a.u.
Under “mean fluorescence intensity”, `2'F-ANA at 2 5 6 8 11 12 14 15` is recorded as 415 a.u.
`2'F-ANA at 1 2 3 4 6 8 9 11 14` — result for “mean fluorescence intensity”: 55.1 a.u.
Under “mean fluorescence intensity”, `2'F-ANA at 5 8 11 13` is recorded as 62.1 a.u.
`2'F-ANA at 2 5 6 8 9 10 12 14` — result for “mean fluorescence intensity”: 62.7 a.u.
`2'F-ANA at 2 8 12`: “mean fluorescence intensity” 899 a.u.
`2'F-ANA at 2 3 5 6 11` — result for “mean fluorescence intensity”: 83.8 a.u.
`2'F-ANA at 1 6 8 10 11 13 14 15` — result for “mean fluorescence intensity”: 51 a.u.
For `2'F-ANA at 1 2 4 5 7 8 10 12`, “mean fluorescence intensity” read 57.1 a.u.
`2'F-ANA at 1 2 6 7 8 10 11 14`: “mean fluorescence intensity” 47.3 a.u.
`2'F-ANA at 3 6 9 10 14` — result for “mean fluorescence intensity”: 421 a.u.
`2'F-ANA at 3 7 8 12`: “mean fluorescence intensity” 1760 a.u.
For `2'F-ANA at 1 3 5 6 8 12 13 14 15`, “mean fluorescence intensity” read 104 a.u.
`2'F-ANA at 1 4 5 7 8 10 11 12 13 14` — result for “mean fluorescence intensity”: 65.3 a.u.
For `2'F-ANA at 1 3 5 12 13 14`, “mean fluorescence intensity” read 43.4 a.u.
`2'F-ANA at 2 5 8 9 11 12 13 15` — result for “mean fluorescence intensity”: 81.1 a.u.
